Measurements collected from several papers.
A part holds a random share of what one study measured.
Chain of UniProt O43293 (whole entry, looked up): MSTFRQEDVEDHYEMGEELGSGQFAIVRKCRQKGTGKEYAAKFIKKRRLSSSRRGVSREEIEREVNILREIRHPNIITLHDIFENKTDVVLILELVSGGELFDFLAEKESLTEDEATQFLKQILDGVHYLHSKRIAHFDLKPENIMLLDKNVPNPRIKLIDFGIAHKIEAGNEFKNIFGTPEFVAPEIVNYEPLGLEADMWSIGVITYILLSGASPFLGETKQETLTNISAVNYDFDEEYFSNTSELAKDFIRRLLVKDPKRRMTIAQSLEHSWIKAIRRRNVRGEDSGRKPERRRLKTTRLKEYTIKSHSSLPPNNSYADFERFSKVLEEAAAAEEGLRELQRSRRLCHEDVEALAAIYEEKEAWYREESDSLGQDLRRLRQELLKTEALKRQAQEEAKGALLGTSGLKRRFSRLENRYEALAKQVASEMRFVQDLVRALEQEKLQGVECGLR
Chain of UniProt Q08881 (whole entry, looked up): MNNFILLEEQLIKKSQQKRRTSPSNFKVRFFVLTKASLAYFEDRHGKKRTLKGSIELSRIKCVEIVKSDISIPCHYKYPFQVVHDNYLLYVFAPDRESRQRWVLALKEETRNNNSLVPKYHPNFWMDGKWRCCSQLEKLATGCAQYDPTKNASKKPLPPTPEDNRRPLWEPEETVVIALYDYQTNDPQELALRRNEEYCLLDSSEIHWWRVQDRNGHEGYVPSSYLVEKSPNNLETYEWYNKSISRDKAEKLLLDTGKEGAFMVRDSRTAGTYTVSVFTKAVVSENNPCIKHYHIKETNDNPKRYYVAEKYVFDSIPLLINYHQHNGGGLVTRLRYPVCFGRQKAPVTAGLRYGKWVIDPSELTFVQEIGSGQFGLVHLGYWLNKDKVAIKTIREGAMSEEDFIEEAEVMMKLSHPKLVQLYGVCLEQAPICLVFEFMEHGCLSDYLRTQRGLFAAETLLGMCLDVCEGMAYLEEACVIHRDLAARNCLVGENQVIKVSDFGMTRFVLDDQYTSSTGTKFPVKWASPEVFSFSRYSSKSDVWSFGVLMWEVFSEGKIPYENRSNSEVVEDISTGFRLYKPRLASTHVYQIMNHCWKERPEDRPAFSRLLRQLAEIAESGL

Sample 1
Target: RNA binding protein fox-1 homolog 2, RRM domain, GST-SBP tag (RBFOX2, Homo sapiens, UniProt O43251-10, residues 100-194)
Technique: RNA Bind-n-Seq
Form: RNA
Matrix: in vitro
Tested at: 365 nM
Setting: natural RNA segment, single round, ends assumed
Reference: no-protein control
Reading: higher = stronger binding
Shared flanks, not repeated: GGGAGUUCUACAGUCCGACGAUC … UGGAAUUCUCGGGUGCCAA
Residues (chain): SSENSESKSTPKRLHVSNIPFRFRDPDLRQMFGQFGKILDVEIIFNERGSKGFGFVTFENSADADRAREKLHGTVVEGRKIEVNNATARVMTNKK
Oligonucleotide | RBNS enrichment (R)
AAAUUAACACAGGAUAAUUAGUGUCACCGUUUAUUCCAAACUAGGCCAGCUGGGUUUCCAGCUUUUCUUCUACUGGUCUGAUGUUUUAUAAAUGGAAACCUGGUUUUUCU | 0.313
UAAUAUCUUGCUGGAUUAAUGUUUUGUACAAUUACUAAAUUGUAUACAUUUUGUUAUAGAAUACUUUUUUCUAGUUUCAGUAAAUAAUGAAAAGGAAGUUAAUACCAAUA | 0.472
UGUCAAACCAUGAUGUUGUCAUUGAGCAGUAGCUCAUGAGCAAUGGCAUGUCUUUCUCCCCUGACCCCAAUCUAUUUUAAUAAAGCAGAGUAGUCAUAGUGUUGAAAGAA | 0.249
AGAUAUAAGUACGGUCAAAAAACAAAACUGUGGGACUUACAUUUAUUUUCUAUAGUAAUCUGUUGUACAUUUUAAGAAGUAAAACUAGGAAUUUAGGAGUGAUGUGUGAC | 1.08
CUGUCUAUGUAUCUUAAUCACAAAUGGUUUCAUUCACUUUACUUUUAAAAAUUUGUCCUUAAAUGAAUAAAUAAAAUAAAAGUUGGUCCUGUGAGAGGAUAAUGAAGAUG | 0.305
AAUUGAGGCCUCCAUGUGGGAAGUGUGAUUUCUGCUUUUGUGUCCCAUCCCCACCCCACCCCAUUACCACAGCUGCCUUUGUGUCUGUGUCAAUAAAAAGCCAAACCCUG | 0.6
GCAAAAAGAUCUGUAUUUACACUCCUUCACCUAGGGAUGUGUUUGUUGCCCUCCUACCCAAUUGUCAUGAUUGUCCUUAGUACCCUAGGCCUAGAUUCUGAGAUCUUCCC | 0.486
UCCUUUGGGAUUUUGUUGCUCCGUUUAAACCAGGUGUAUUGUGACAUGAACAUGACUUUCCUAAAGUGGAAGGAUCUGUCCCCACCUUCACCCAGUCCUUAGGACAAGUA | 0.283

Sample 2
Target: RING finger protein unkempt homolog, zinc fingers 1-6, GST-SBP tag (UNK, Homo sapiens, UniProt Q9C0B0, residues 30-357)
Technique: RNA Bind-n-Seq
Form: RNA
Matrix: in vitro
Tested at: not given
Setting: RNA with constant flanks, ends assumed
Reference: input RNA pool
Reading: higher = stronger binding
Shared flanks, not repeated: GGGAGUUCUACAGUCCGACGAUC … CAACAGAGGAUUGAGCAUCA
Target sequence (chain): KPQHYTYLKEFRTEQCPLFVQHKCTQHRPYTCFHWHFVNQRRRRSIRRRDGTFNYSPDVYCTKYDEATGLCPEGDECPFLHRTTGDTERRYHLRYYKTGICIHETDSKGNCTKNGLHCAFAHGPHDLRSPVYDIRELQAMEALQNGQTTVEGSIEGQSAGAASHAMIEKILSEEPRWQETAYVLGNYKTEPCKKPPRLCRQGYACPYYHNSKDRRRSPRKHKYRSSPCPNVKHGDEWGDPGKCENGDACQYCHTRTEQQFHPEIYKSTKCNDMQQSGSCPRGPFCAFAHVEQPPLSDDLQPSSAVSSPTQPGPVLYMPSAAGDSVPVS
Oligonucleotide | bound/input enrichment [ratio]
CUCCAGCUCGUGUAUGAGUUCUUCUUACGUUUCCUUGAGUCUCCUGAUUUCCAGCCAAACACCGCCAAGAAGUACAUCGACCAGAAGUUUGUACUUGCUCUCCUAGACCUAUUUGACAGU | 0.426
UUUUCAUUCAACCCCAUGCUGGAUAAAGAAGAAAGAGAGCAAGGCUGGGUGCUGAUCGAUCUCCGUGAAGAAUACACGCGGAUGGGCCUCCCUAAUCAUUACUGGCAGCUCAGCGAUGUG | 0.118
GAAGCCUUGAAGAUCUUCCAGAAAAUAAAGGAUGAAAAGAGUCCAGAAUGGUCCAAAUACUCCGGAUUAAUCAAAAAAUUUGUCACUGAUUCCAAUGCAGUGGUUCAAUUGAAAGGACUA | 0.192
UUCUUUUCUUUUCUUUUCUUUUCUUUUCUUUUCUUUUCUUUUCUUUUUUCUUUUUUUUUUUUCCGGCAGUGUGUUGCUAAACAGCCCUGGCUGGCCUGGGACUUGCUAUGUAGACCAGGC | 4.62
AAUAAGGAAAAGUAUGGCAAACCAAAUAAACGGAAAGGUUUUAAUGAAGGAUUGUGGGAGACCGAUAACAAUCCGAAAGUGAAAUUUUCAAGUCAACAGGCAUCAACUAAACAAUCCAAU | 0.133
UUGGAUGUGACAGUGCAGUCCUUUGGAUGGUCCGAUAGAGCAAAGGCAAAAACAGAUAACACCGCAAGAAUUUACCAGCCCAAGCGUUAUGCUCUGUCGCCCAAGACAACAGUCACAUUG | 0.0703
AGUUCAGAGUCCGGAGCUGCGGUGGUGGCGGCGAAGGCGAGAGUCAUGGCUGGACAAGCUUUCCGGAAGUUUCUUCCGCUCUUUGACAGAGUAUUGGUUGAAAGGAGUGCUGCCGAAACU | 0.0984
GGAGAUAUUCCAGAUCUUUCACAGGCCCCCAGCAGUCUUCUUGAUGCUUUAGAACAACAUUCCGCUUCCUUGGAAGGAAAGAAAAUCAAAGAUUCCACAGCUGCAAGCAGGGCUACAACA | 0.111

Further values, each from its own experiment
Structure (SMILES) | target | assay | conditions | scale | quantity | result
C[C@@]1(Cc2ccc(C#N)cc2)C(=O)N(c2cc(Cl)cc(Cl)c2)c2ncc(C(=O)NC3(c4nc(C5CCC5)no4)CC3)n21 | Death-associated protein kinase 3 (DAPK3, Homo sapiens, UniProt O43293) | cell-free assay, competition with immobilised ligand | 1 µM | – | remaining binding | 94%
CC(C)n1cnc2c(Nc3cccc(Cl)c3)nc(NCCO)nc21 | Tyrosine-protein kinase ITK/TSK (ITK, Homo sapiens, UniProt Q08881) | enzyme activity, inhibitor | 0.5 µM | reference: control | remaining activity | 96%

For quick reference, copied from above (sample 1):
Oligonucleotide | RBNS enrichment (R)
AGAUAUAAGUACGGUCAAAAAACAAAACUGUGGGACUUACAUUUAUUUUCUAUAGUAAUCUGUUGUACAUUUUAAGAAGUAAAACUAGGAAUUUAGGAGUGAUGUGUGAC | 1.08
CUGUCUAUGUAUCUUAAUCACAAAUGGUUUCAUUCACUUUACUUUUAAAAAUUUGUCCUUAAAUGAAUAAAUAAAAUAAAAGUUGGUCCUGUGAGAGGAUAAUGAAGAUG | 0.305
AAUUGAGGCCUCCAUGUGGGAAGUGUGAUUUCUGCUUUUGUGUCCCAUCCCCACCCCACCCCAUUACCACAGCUGCCUUUGUGUCUGUGUCAAUAAAAAGCCAAACCCUG | 0.6
